{"data": "Results pooled from the literature", "target": "Aurora kinase A (AURKA, Homo sapiens, UniProt O14965)", "One construct used (O14965 1-403)": "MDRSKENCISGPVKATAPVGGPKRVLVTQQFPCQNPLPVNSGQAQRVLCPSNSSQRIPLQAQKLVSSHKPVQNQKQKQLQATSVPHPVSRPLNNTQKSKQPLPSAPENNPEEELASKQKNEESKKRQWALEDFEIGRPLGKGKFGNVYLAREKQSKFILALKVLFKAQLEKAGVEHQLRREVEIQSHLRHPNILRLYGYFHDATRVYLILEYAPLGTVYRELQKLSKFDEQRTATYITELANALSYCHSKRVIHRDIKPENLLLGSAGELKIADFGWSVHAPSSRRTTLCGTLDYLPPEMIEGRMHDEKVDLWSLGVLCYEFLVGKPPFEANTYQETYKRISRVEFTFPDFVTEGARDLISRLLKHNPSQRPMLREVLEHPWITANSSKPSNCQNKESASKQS", "note": "Protocols differ between the studies behind these lines. Values joined by “and” are separate records of one study, mostly repeats; a detail may differ."}
{"SMILES": "Nc1ncc2c(n1)-c1c([nH]c3ccc(C4=CCOCC4)cc13)CCC2", "test": "binding, competition with immobilised ligand", "setting": "1 µM", "quantity": "remaining binding", "result": "95%"}
{"SMILES": "CN1CC[C@@H](COc2cnc(C#N)cc2-c2ccn3nc(NC(=O)C4CC4)cc3c2)C1", "test": "enzyme activity, inhibitor", "setting": "1 µM", "quantity": "inhibition", "result": "19%"}
{"SMILES": "COc1ccc(NC(=O)Nc2ccc3c(c2)C(=O)N(C(C)CO)CC(C)C(CN(C)Cc2ccc4c(c2)OCO4)O3)cc1 (stereo not drawn)", "test": "kinase activity", "setting": "0.03 µM", "how to read": "baseline: control", "quantity": "remaining activity", "result": "94%"}
{"SMILES": "Cc1ccc(-c2c(/C=C(\\C#N)C(=O)NC(C)C)n(CCCO)c3ncnc(N)c23)cc1", "test": "cell-free assay, competition with immobilised ligand", "setting": "1 µM", "quantity": "remaining binding", "result": "82%"}
{"SMILES": "COc1cc(Nc2nc(C)cc(-c3cnn4nc(OC)ccc34)n2)cc(C(F)(F)F)c1", "test": "inhibitor", "setting": "1 µM", "how to read": "baseline: control", "quantity": "remaining activity", "result": "93%"}
{"SMILES": "Cc1[nH]nc2c1N=C(c1ccccc1Cl)c1cnc(N3CCOCC3)cc1N2", "test": "enzyme activity, inhibitor", "setting": "0.5 µM", "quantity": "inhibition", "result": "> 99%"}
{"SMILES": "CN1C[C@@H](c2c[nH]c3cc(Br)ccc23)NC[C@@H]1c1c[nH]c2cc(Br)ccc12", "test": "enzyme activity, inhibitor", "setting": "10 µM", "quantity": "remaining activity", "result": "93%"}
{"SMILES": "CNC(=O)C[C@H](Cc1ccc(C#N)cc1)NC(=O)c1cc(-c2ccc(CN[C@H](C)c3ccc(C)cc3)o2)ccc1Cl", "test": "enzyme activity, inhibitor", "setting": "1 µM", "quantity": "activity vs control", "result": "100%"}
{"SMILES": "C=C1CCCCCCCCCC(CO)C1=O (stereo not drawn)", "test": "cell-free assay", "setting": "10 µM", "quantity": "remaining signal", "result": "55%"}
{"SMILES": "O=C=[N][Ru-4]123([n]4c5ccc(O)cc5c5c6c(c7cc(F)c[n+]1c7c54)C(=O)NC6=O)[S+]1CC[S+]2CC[S+]3CC1 (stereo not drawn)", "test": "enzyme activity", "setting": "100 nM, human enzyme, with: 10 µM ATP", "how to read": "baseline: untreated", "quantity": "remaining activity", "result": "117%"}
{"SMILES": "COc1ccc(C(=O)/C=C/c2ccccc2-c2c[nH]c3ccc(C#N)cc23)c(O)c1", "test": "enzyme activity, inhibitor", "setting": "20 µM", "quantity": "inhibition", "result": "12%"}
{"SMILES": "CN1CCN(Cc2ccc(-c3ccc(CO[C@H]4CCC[C@@H]4NC(=O)c4cc(-c5cnn(C)c5)cnc4N)cc3)cc2)CC1", "test": "enzyme activity, inhibitor", "setting": "0.1 µM", "quantity": "inhibition", "result": "5%"}
{"SMILES": "COCC12C(=O)NC3C4(C(OC)CC1O)C1CC5(O)C(OC)C(O)C(OC(C)=O)(C1C5OC(=O)c1ccccc1)C3(O)C(OC)C24 (stereo not drawn)", "test": "kinase activity, inhibitor, ProQinase kinase profiling", "setting": "25 µM", "how to read": "baseline: control", "quantity": "remaining activity", "result": "103% and 101%"}
{"SMILES": "CN1CCN(Cc2ccc(NC(=O)c3cccc(C#Cc4cnc(N)c5ncccc45)c3)cc2C(F)(F)F)CC1", "test": "cell-free assay, competition with immobilised ligand", "setting": "50 nM", "quantity": "remaining binding", "result": "82%"}
{"SMILES": "NC(=O)C[C@H]1CCc2sc3ncnc(O[C@H]4CC[C@H](N5CCOCC5)CC4)c3c21", "test": "enzyme activity, inhibitor", "setting": "10 µM", "quantity": "inhibition", "result": "15%"}
{"SMILES": "C=CC(=O)Nc1cccc(-c2cnc3[nH]cc(C(=O)NC(C)(C)C)c3n2)c1", "test": "enzyme activity, inhibitor", "setting": "0.1 µM", "quantity": "inhibition", "result": "34%"}
{"SMILES": "CCN1CCN(Cc2ccc(C(=O)Nc3ccc(C)c(NCc4cnc5[nH]ccc5c4OC)c3)cc2C(F)(F)F)CC1", "test": "binding, competition with immobilised ligand", "setting": "1 µM", "quantity": "remaining binding", "result": "86%"}
{"SMILES": "COc1c(OCCCN2CCOCC2)ccc2c1N=C(NC(=O)c1cnc(N)nc1)N1CCN=C21", "test": "kinase activity, inhibitor", "setting": "1 µM", "how to read": "baseline: untreated control", "quantity": "remaining activity", "result": "111%"}
{"SMILES": "C=CC(=O)N1CCCC(n2c(=O)c3ncccc3n(Cc3ccc(Oc4ccccc4)cc3)c2=O)C1 (stereo not drawn)", "test": "cell-free assay, competition with immobilised ligand", "setting": "1 µM", "quantity": "remaining binding", "result": "72%"}
{"SMILES": "CC(C)=CC1OC(C)(C)C2C=C3C(=O)C(Cl)=CC(O)C3C3C(O)C4OC4C(=O)C132 (stereo not drawn)", "test": "cell-free assay, competition with immobilised ligand", "setting": "10 µM", "quantity": "remaining binding", "result": "100%"}
{"SMILES": "Cc1cccc(O[C@H]2CCC[C@@H](C(C)CNCc3ccncc3)C2)c1 (relative stereo)", "test": "enzyme activity, inhibitor", "setting": "1 µM", "quantity": "inhibition", "result": "-17%"}
